Published values gathered from unrelated publications.
Each line is one published result; not all experiments were run side by side. Values joined by “and” are separate records of one study, mostly repeats; a detail may differ. ± marks the error that the study gave. Values after ≈ are worked out from the molar mass of the structure shown.

Compound	organism	assay	test system	setting	how to read	quantity	value
CC(=Nc1ccc(N=Cc2cnccn2)cc1)N(C)C	Necator americanus		infected hamster	oral, 50 mg/kg, single dose		time to worm clearance	≤ 24 h
CN[C@H](CC(C)C)C(=O)N[C@H]1C(=O)N[C@@H](CC(N)=O)C(=O)N[C@H]2C(=O)N[C@H]3C(=O)N[C@H](C(=O)N[C@H](C(=O)O)c4cc(O)cc(O)c4-c4cc3ccc4O)[C@H](O)c3ccc(c(Cl)c3)Oc3cc2cc(c3O[C@@H]2O[C@H](CO)[C@@H](O)[C@H](O)[C@H]2O[C@H]2C[C@](C)(N)[C@H](O)[C@H](C)O2)Oc2ccc(cc2Cl)[C@H]1O	Staphylococcus aureus	broth microdilution	methicillin-susceptible isolates			MIC90	1 µg/mL (≈ 0.69 µM)
Nc1nc(-c2ccccc2)nc2[nH]nc(Nc3ccc(C(F)(F)F)cc3)c12	coxsackievirus B3		31-1-93, NMRI mice, CVB3 chronic myocarditis	oral, 100 mg/kg twice daily, day 26, dosed days 1 to 7, score scale 0 to 7	direction not given	clinical score	0.11
CC(C)c1ccc(/C=C2\N=C(SCC(=O)c3ccccc3)N(c3ccccc3)C2=O)cc1	Bacillus cereus		ATCC 14579	concentration not given		inhibition zone diameter	14 ± 0.05 mm
O=c1c(O[C@@H]2O[C@H](CO)[C@H](O)[C@H](O)[C@H]2O)c(-c2ccc(O)c(O)c2)oc2cc(O)cc(O)c12	human immunodeficiency virus 1	viral replication	TZM-bl cells, BaL (CCR5-tropic)	48 h		IC50	> 100 µM
CCCCCCCNC1=C(n2cncn2)C(=O)c2ccccc2C1=O	Bacillus cereus		MTCC 430	10 µg/mL		zone of inhibition	6 mm
Fc1ccc(Nc2c(-c3ccccn3)nc3cc(F)ccn23)cc1	Leishmania infantum		macrophages, MHOM/MA(BE)/67/ITMAP263, amastigote			IC50	32.2 µM and 23.9 µM
O=C(O[C@@H]1O[C@@H]2COC(=O)c3cc(O)c(O)c(O)c3-c3c(cc(O)c(O)c3O)C(=O)O[C@H]([C@H]1O)[C@@H]2O)c1cc(O)c(O)c(O)c1	Streptococcus gordonii	broth microdilution				MBC/MIC ratio	8
CCCCCCCCCC(=O)N[C@@H](Cc1c[nH]c2ccccc12)C(=O)N[C@H](CC(N)=O)C(=O)N[C@@H](CC(=O)O)C(=O)N[C@@H]1C(=O)NCC(=O)N[C@@H](CCCN)C(=O)N[C@@H](CC(=O)O)C(=O)N[C@H](C)C(=O)N[C@@H](CC(=O)O)C(=O)NCC(=O)N[C@H](CO)C(=O)N[C@@H]([C@H](C)CC(=O)O)C(=O)N[C@@H](CC(=O)c2ccccc2N)C(=O)O[C@@H]1C	Enterococcus	broth microdilution	VRE 155, Mueller-Hinton broth, Mg2+ 10 mg/L	16 h, together with: Ca2+ 1.0 mM		MIC	0.5 µg/mL (≈ 0.309 µM)
Cc1ccc2nc(-c3ccccc3)c(CNc3ccc(F)cc3)n2c1	Leishmania infantum		MHOM/MA(BE)/67/ITMAP263	120 h	baseline: CC50 macrophages over EC50 amastigotes	selectivity index	1
COc1cc(C#CC(=O)c2ccccc2)ccc1O	Pseudomonas aeruginosa		PA14	10 µM, 24 h, static conditions	baseline: DMSO	biofilm formation	46%
COc1ccc2nc(-c3cc(N(C)C)ccn3)c(N(C)c3ccc(F)cc3)n2c1	Leishmania infantum		macrophages, MHOM/MA(BE)/67/ITMAP263, amastigote			IC50	1.39 µM and 1.78 µM
O=S(=O)(c1ccc(Cl)cc1)N1CCN(c2ccc(C(F)(F)F)c(NCc3ccncc3)c2)CC1	Aedes aegypti			100 µM, 48 h, 1 instar larvae		larval mortality	> 80%
Fc1ccc(Nc2c(-c3ccccn3)nc3cnccn23)cc1	Leishmania infantum		macrophages, MHOM/MA(BE)/67/ITMAP263, amastigote			IC50	> 64 µM
CCOC(=O)c1cccc(Cn2ccc3ccc(-c4ccc5ccn(Cc6cccc(C(=O)O)c6)c5c4)cc32)c1	human immunodeficiency virus 1	viral attachment, MAGI cell	MAGI cells, Ba-L	3 h postinfection washout, CCR5-tropic		IC50	9.71 µM
Fc1ccc(Nc2c(-c3cc(Cl)ccn3)nc3ccccn23)cc1	Leishmania infantum		macrophages, MHOM/MA(BE)/67/ITMAP263, amastigote			IC50	3.17 µM and 25.7 µM
CC(C)n1ncc2c(C(=O)NCC3(C)CNC3)cc(C3CC3)nc21	coxsackievirus A6	CPE	RD	15 µM		cell protection	100%
Fc1ccc(Nc2c(-c3ccccn3)nc3ccncn23)cc1	Leishmania infantum		macrophages, MHOM/MA(BE)/67/ITMAP263, amastigote			IC50	> 64 µM and 38.1 µM
CNc1ccc(S(=O)(=O)Nc2ccc(OC)nc2)cc1	Leishmania infantum	intracellular amastigote growth	U-937 macrophages and HeLa		baseline: IC50 HeLa over IC50 amastigotes	selectivity index	> 1.8

For quick reference, copied from above:
Compound	organism	assay	test system	setting	how to read	quantity	value
CCCCCCCCCC(=O)N[C@@H](Cc1c[nH]c2ccccc12)C(=O)N[C@H](CC(N)=O)C(=O)N[C@@H](CC(=O)O)C(=O)N[C@@H]1C(=O)NCC(=O)N[C@@H](CCCN)C(=O)N[C@@H](CC(=O)O)C(=O)N[C@H](C)C(=O)N[C@@H](CC(=O)O)C(=O)NCC(=O)N[C@H](CO)C(=O)N[C@@H]([C@H](C)CC(=O)O)C(=O)N[C@@H](CC(=O)c2ccccc2N)C(=O)O[C@@H]1C	Enterococcus	broth microdilution	VRE 155, Mueller-Hinton broth, Mg2+ 10 mg/L	16 h, together with: Ca2+ 1.0 mM		MIC	0.5 µg/mL (≈ 0.309 µM)
Cc1ccc2nc(-c3ccccc3)c(CNc3ccc(F)cc3)n2c1	Leishmania infantum		MHOM/MA(BE)/67/ITMAP263	120 h	baseline: CC50 macrophages over EC50 amastigotes	selectivity index	1
COc1cc(C#CC(=O)c2ccccc2)ccc1O	Pseudomonas aeruginosa		PA14	10 µM, 24 h, static conditions	baseline: DMSO	biofilm formation	46%
